# Published values pooled from the literature.
# ± gives the spread as reported. The star is where a group is joined.
# Ryanodine receptor 1: Ryanodine receptor 1 (Oncorhynchus mykiss, UniProt A0A8C7UX14)
# CNR1: Cannabinoid receptor 1 (CNR1, Homo sapiens, UniProt P21554)
# Sequence of UniProt P21554 (whole entry, looked up): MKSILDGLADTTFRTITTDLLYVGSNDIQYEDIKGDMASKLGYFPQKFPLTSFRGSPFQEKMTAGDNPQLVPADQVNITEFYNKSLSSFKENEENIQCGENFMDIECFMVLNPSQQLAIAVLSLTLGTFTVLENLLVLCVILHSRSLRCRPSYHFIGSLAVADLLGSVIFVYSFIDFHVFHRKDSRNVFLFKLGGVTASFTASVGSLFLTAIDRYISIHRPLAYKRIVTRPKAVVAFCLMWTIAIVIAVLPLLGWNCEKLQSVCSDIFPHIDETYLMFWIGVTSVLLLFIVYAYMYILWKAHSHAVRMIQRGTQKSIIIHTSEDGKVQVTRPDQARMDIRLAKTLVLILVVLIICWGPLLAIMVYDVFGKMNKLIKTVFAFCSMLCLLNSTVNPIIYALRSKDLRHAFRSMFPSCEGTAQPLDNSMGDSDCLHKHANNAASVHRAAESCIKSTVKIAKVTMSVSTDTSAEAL
# gdpP residues 84-659: gdpP, residues 84-659 (Bacillus subtilis, UniProt P37484)
# Sequence of UniProt P37484 (84-659, looked up): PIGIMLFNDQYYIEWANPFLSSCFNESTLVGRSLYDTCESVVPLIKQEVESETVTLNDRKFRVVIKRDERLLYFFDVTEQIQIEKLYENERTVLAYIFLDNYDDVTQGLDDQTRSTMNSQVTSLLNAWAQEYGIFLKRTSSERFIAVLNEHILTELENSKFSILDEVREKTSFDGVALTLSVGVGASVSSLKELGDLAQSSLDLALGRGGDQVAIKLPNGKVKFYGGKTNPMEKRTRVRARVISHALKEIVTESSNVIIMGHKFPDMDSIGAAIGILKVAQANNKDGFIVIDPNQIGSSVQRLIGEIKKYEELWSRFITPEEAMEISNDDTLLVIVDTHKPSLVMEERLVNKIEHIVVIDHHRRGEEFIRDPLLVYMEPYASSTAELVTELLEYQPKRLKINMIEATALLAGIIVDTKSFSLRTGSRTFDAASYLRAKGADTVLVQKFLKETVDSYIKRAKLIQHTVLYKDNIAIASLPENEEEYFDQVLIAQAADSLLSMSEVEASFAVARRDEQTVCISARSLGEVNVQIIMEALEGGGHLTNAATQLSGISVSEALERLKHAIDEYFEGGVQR
# Sequence of UniProt P08473 (whole entry, looked up): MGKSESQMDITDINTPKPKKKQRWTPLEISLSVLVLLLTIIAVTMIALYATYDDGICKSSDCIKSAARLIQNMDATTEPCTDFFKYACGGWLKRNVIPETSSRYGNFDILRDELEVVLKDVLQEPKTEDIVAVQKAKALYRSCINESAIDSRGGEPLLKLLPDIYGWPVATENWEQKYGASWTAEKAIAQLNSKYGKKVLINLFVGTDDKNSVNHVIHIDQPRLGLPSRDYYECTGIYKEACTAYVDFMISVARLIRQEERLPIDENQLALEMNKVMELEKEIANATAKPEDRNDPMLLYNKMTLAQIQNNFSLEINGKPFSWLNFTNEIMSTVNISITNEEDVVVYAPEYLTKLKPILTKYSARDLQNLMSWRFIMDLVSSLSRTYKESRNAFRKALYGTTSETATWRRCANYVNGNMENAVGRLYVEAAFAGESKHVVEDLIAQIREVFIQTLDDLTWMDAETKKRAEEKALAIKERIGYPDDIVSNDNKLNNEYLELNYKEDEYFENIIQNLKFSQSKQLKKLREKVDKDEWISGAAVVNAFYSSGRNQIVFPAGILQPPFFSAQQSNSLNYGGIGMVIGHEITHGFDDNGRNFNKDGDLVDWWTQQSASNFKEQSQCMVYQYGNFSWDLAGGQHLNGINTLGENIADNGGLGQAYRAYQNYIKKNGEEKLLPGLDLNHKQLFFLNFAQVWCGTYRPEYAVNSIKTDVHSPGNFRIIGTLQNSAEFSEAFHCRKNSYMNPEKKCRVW
# Sequence of UniProt P17787 (whole entry, looked up): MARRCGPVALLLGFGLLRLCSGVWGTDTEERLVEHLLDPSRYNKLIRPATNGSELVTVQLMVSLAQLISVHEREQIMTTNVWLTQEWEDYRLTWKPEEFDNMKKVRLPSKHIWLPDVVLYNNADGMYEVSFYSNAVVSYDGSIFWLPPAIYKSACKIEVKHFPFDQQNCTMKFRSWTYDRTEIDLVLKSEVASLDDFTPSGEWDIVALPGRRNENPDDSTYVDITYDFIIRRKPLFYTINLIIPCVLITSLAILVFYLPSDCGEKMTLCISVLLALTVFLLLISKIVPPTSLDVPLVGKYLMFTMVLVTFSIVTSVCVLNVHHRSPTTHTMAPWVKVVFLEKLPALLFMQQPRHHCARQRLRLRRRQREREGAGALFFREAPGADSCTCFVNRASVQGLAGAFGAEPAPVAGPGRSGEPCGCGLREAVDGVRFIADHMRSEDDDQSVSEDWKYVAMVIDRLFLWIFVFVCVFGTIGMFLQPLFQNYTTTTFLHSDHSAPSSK
# Sequence of UniProt P06276 (whole entry, looked up): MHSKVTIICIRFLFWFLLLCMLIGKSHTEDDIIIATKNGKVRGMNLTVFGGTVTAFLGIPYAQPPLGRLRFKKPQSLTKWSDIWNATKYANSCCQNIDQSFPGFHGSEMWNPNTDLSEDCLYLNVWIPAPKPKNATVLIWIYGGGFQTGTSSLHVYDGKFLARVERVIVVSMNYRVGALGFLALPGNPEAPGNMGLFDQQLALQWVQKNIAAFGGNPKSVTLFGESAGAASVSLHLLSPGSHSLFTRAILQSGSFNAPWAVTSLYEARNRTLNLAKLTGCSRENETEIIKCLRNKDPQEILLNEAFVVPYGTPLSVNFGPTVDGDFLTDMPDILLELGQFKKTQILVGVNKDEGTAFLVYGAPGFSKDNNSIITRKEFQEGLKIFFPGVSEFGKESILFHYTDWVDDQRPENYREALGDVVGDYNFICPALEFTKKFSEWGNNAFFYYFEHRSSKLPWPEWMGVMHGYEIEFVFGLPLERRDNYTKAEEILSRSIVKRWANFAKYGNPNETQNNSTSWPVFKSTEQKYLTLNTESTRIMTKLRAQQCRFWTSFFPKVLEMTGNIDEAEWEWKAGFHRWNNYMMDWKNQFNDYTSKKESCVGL
# Sequence of UniProt Q12791 (whole entry, looked up): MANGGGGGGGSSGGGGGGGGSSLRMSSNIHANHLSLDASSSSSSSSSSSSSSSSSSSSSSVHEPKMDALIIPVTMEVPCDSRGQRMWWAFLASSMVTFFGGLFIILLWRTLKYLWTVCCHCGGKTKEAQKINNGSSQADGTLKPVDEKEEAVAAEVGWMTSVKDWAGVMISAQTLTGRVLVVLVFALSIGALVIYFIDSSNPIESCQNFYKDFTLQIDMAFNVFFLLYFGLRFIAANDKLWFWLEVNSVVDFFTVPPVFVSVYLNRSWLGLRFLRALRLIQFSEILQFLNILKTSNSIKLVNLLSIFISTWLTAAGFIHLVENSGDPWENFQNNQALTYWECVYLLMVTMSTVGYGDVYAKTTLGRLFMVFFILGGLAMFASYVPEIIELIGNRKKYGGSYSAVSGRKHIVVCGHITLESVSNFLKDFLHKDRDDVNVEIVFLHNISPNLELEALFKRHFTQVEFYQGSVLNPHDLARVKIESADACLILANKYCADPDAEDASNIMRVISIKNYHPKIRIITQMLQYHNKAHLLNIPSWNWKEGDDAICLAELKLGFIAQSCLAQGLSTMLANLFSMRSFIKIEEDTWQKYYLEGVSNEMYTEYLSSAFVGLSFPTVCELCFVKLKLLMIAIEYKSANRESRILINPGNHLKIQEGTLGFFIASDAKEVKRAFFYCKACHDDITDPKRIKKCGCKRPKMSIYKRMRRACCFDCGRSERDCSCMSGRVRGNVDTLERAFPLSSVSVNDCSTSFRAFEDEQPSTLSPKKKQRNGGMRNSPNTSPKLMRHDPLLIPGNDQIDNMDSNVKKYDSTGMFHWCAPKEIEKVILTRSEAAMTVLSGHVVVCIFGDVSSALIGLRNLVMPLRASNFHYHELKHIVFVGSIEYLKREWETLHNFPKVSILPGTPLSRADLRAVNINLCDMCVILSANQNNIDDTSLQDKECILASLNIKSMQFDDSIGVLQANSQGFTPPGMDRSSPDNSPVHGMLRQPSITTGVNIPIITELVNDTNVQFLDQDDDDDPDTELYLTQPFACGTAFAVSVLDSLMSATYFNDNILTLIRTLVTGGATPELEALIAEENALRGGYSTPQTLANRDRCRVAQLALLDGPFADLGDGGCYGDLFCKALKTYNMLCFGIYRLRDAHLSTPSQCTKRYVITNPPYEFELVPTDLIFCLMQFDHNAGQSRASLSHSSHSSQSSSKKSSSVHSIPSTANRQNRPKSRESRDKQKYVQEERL
# Sequence of UniProt Q14790 (whole entry, looked up): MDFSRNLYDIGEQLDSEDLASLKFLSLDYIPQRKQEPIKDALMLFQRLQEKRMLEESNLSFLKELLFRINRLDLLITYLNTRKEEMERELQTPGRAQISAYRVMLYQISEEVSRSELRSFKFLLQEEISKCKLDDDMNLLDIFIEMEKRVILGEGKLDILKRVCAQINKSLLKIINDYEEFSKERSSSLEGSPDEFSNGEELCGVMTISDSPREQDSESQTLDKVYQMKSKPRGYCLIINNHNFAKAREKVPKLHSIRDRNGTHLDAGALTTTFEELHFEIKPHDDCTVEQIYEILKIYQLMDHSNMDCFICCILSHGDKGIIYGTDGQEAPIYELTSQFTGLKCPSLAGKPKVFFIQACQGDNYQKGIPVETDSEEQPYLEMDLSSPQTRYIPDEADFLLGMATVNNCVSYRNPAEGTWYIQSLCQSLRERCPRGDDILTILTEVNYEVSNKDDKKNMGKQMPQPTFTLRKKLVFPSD
# Sequence of UniProt Q8NKB0 (whole entry, unmodified, looked up): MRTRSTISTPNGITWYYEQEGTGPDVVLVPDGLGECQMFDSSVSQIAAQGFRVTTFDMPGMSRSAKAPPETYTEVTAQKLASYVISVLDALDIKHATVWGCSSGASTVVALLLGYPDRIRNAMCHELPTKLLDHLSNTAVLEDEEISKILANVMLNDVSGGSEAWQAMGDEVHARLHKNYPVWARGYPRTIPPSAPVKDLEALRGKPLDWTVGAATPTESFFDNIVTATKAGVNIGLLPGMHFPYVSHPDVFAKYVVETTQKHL
Molecule,target,test,test system,conditions,scale,endpoint,value
Clc1ccc(Cl)c(-c2cccc(Cl)c2Cl)c1,Ryanodine receptor 1,[3H]ryanodine binding,"rainbow trout, skeletal muscle microsomes",,,EC20,5350 nM
KQTARKSTGGWW (palmitoyl-Lys9),"HDAC8 (Homo sapiens, UniProt Q9BY41)","substrate, HPLC",peptide,"1 µM, 1 h, pH 8, 37 °C",,kcat/Km,28.8 ± 7 M⁻¹ s⁻¹
N.N.[Cl][Pt][Cl],"Alpha-synuclein, oligomers (SNCA, Homo sapiens, UniProt P37840)","oligomer-vesicle binding, FIDA",,"5 µM, together with: 150 nM oligomers, 50 µM DOPG liposomes",baseline: untreated,reduction in bound oligomers,15 to 20%
O=C(O)CCCC[C@@H]1SC[C@@H]2NC(=O)N[C@@H]21,"Biotin protein ligase (Pyrococcus horikoshii, UniProt O57883)","binding, fluorescence titration",,"20 °C, together with: α,β-methylene-ATP saturating",,ΔG°,-8.74 ± 0.07 kcal/mol
CC1(NC(=O)c2nn(Cc3ccc(F)cc3)c3ccccc23)CCCN(CC(N)=O)C1 (stereo not shown),CNR1,"calcium mobilization, agonist",CHO-K1 expressing Gαq16,,"baseline: CP55,940 maximum",Emax,142 ± 11%
anthraquinone-neomycin,poly(dA)•2poly(dT) triplex DNA,isothermal titration calorimetry,,"concentration not given, pH 5.5, 15 °C, KCl 150 mM",,binding enthalpy,-6.1 ± 0.2 kcal/mol
O=C(OC1CCCN(CCCc2ccccc2)C1)c1ccccc1-c1ccccc1 (stereo not shown),"Neuronal acetylcholine receptor; alpha4/beta2 (Homo sapiens, UniProt P17787+P43681)",,,concentration not given,baseline: amide analogue over parent scaffold,potency fold change,1.5
BIM,"MCL1 (Homo sapiens, UniProt Q07820)",bacterial surface display flow cytometry,,value is labelling concentration,,approximate KD,~1 nM
Nc1ncnc2c1ncn2[C@@H]1O[C@@H]2COP(=O)(O)O[C@H]3[C@@H](F)[C@H](n4cnc5c(N)ncnc54)O[C@@H]3COP(=O)(O)O[C@H]2[C@H]1F,gdpP residues 84-659,"substrate, HPLC",,"100 µM, 37 °C, upper limit if undegraded 24 h, together with: enzyme 1 µM",,degradation rate,≤ 0.001 mol/min/mol enzyme
C[C@H]1CCCC(=O)CCC/C=C/c2cc(O)cc(O)c2C(=O)O1,"zhd101 (Clonostachys rosea, UniProt Q8NKB0, V158H)","substrate, HPLC",,"10 min, pH 5.5, 37 °C, 1% acetonitrile",,Km,17 ± 1.16 mM
Clc1cc(Cl)c(-c2c(Cl)ccc(Cl)c2Cl)cc1Cl,Ryanodine receptor 1,[3H]ryanodine binding,"rainbow trout, skeletal muscle microsomes",,,EC20,450 nM
CCCCCCCCCCC[C@@H](C[C@@H]1OC(=O)[C@H]1CCCCCC)OC(=O)[C@H](CC(C)C)NC=O,"Phosphatidylserine lipase ABHD16A (Homo sapiens, UniProt O95870)","enzyme activity, inhibitor",transfected HEK293T membrane proteome,"20 µM, 30 min",,PS lipase activity,inhibited
O=S(=O)(O)Oc1ccc(-c2ccc(Cl)c(Cl)c2)cc1,"sulfatase, human liver microsomes",substrate,,"pH 7.4, 37 °C",,Vmax,2.1 ± 0.2 nmol/min/mg
N=C(N)NCCC[C@@H]1NC(=O)CNC(=O)[C@H](CC(N)=O)NC(=O)[C@@H](N)CSSC[C@@H](C(=O)O)NC1=O,"Aminopeptidase N (Rattus norvegicus, UniProt P15684)","enzyme activity, inhibitor, absorbance",,"50 µM, pH 7.8, with preincubation",,remaining activity,~82%
Nc1ncnc2c1ncn2[C@@H]1O[C@@H]2COP(O)(=S)O[C@H]2[C@H]1O (stereo partly shown),"cAMP-dependent protein kinase type II-beta regulatory subunit, holoenzyme with catalytic subunit (Prkar2b, Rattus norvegicus, UniProt P12369, S112A)","PKA holoenzyme activation, activator, fluorescence anisotropy",,,"baseline: RIIβ over RIα, higher = RIIβ-selective",selectivity ratio,0.7
"Ac-QDEVD-pNA (N-acetyl, C-pNA; pNA = O=[N+]([O-])c1ccc(N*)cc1)","Caspase-8 (CASP8, Homo sapiens, UniProt Q14790)","substrate hydrolysis, substrate, colorimetric",,pH 7.5,,kcat,0.183 ± 0.0167 s⁻¹
CC[C@H](C)[C@H](NC(=O)[C@H](C)NC(=O)CNC(=O)[C@H](Cc1ccccc1)NC(=O)[C@H](CC(N)=O)NC(=O)[C@H](CC(N)=O)NC(=O)[C@H](CO)NC(=O)[C@H](CO)NC(=O)[C@H](Cc1c[nH]cn1)NC(=O)[C@@H](NC(=O)[C@H](CC(C)C)NC(=O)[C@H](Cc1ccccc1)NC(=O)[C@H](CC(N)=O)NC(=O)[C@H](C)NC(=O)[C@H](CC(C)C)NC(=O)[C@H](CCCNC(=N)N)NC(=O)[C@H](CCC(N)=O)NC(=O)[C@@H](NC(=O)[C@H](C)NC(=O)[C@@H]1CSSC[C@H](NC(=O)[C@@H](N)CCCCN)C(=O)N[C@@H](CC(N)=O)C(=O)N[C@@H]([C@@H](C)O)C(=O)N[C@@H](C)C(=O)N[C@@H]([C@@H](C)O)C(=O)N1)[C@@H](C)O)C(C)C)C(=O)N[C@@H](CC(C)C)C(=O)N[C@@H](CO)C(=O)N[C@@H](CO)C(=O)N[C@H](C(=O)N[C@@H](CC(N)=O)C(=O)N[C@H](C(=O)NCC(=O)N[C@@H](CO)C(=O)N[C@@H](CC(N)=O)C(=O)N[C@H](C(=O)N[C@@H](Cc1ccc(O)cc1)C(N)=O)[C@@H](C)O)C(C)C)[C@@H](C)O,"Neprilysin (MME, Homo sapiens, UniProt P08473)","substrate, HPLC",,"20 µM, 37 °C",,cleavage rate,0.01 ± 0.002 nmol/min/µg
CC(C)Cc1ccc(NC(=O)Oc2ccc3c(c2)[C@]2(C)CCN[C@@H]2N3)cc1,"Cholinesterase (BCHE, Homo sapiens, UniProt P06276)","inhibitor, immobilized enzyme reactor, HPLC-UV",immobilized recombinant human enzyme,"concentration not given, flushing after complete inhibition",,time to full activity recovery,16 h
c1ccc([C@H]2CO2)cc1,Karenia brevis epoxide hydrolase,substrate,,pH 7.0,,Km,6.43 mM
CC(C)(NC(=O)c1nn(CCCCCF)c2ccccc12)c1cccc(C(N)=O)c1,CNR1,"calcium mobilization, agonist",CHO-K1 expressing Gαq16,,"baseline: CP55,940 maximum",Emax,33 ± 7%
O=C(Cc1ccccc1I)NC1CCOC1=O (stereo not shown),"rhlR (Pseudomonas aeruginosa, UniProt P54292)","reporter gene, agonist",Escherichia coli reporter strain,100 µM,baseline: BHL 900 µM,activation,70%
O[C@@H]1CCCC[C@H]1N1CCC(c2ccccc2)CC1 (racemic),"SLC18A3 (Homo sapiens, UniProt Q16572, A334F)",[3H]compound saturation binding,,,baseline: Kd A334F mutant over wild type,affinity ratio,4 fold
Clc1ccc(-c2ccc(Cl)c(Cl)c2)c(Cl)c1,Ryanodine receptor 1,[3H]ryanodine binding,"rainbow trout, skeletal muscle microsomes",up to 20 µM,baseline: DMSO,Emax,130 ± 4.34%
COc1ccccc1Nc1ccc2c(c1)C(c1ccccc1F)=NC(C)C(=O)N2 (stereo not shown),"ADRA2C (Homo sapiens, UniProt P18825)","ligand displacement, radioligand",,10 µM,,inhibition,62%
isotetrandrine,"Heat shock protein HSP 90-alpha, C-terminal domain (HSP90AA1, Homo sapiens, UniProt P07900)","binding, zonal affinity chromatography",,"pH 7.4, 25 °C",,retention time,25.7 min
CC[C@H](C)[C@H](NC(=O)[C@H](C)NC(=O)[C@H](CCC(=O)O)NC(C)=O)C(=O)N[C@H](C(=O)N[C@@H](CCCNC(=N)N)C(=O)N[C@H](C(=O)N[C@@H](CC(C)C)C(=O)N[C@@H](CCC(N)=O)C(=O)N[C@@H](CCC(N)=O)C(=O)N[C@@H](CC(C)C)C(=O)N[C@@H](CC(C)C)C(=O)N[C@@H](Cc1ccccc1)C(=O)N[C@H](C(=O)N[C@@H](Cc1c[nH]cn1)C(=O)N[C@@H](Cc1ccccc1)C(=O)N[C@@H](CCCNC(=N)N)C(=O)N[C@H](C(=O)NCC(=O)N[C@@H](CCCNC(=N)N)C(=O)N[C@@H](CCCNC(=N)N)C(=O)N[C@@H](CCCNC(=N)N)C(=O)N[C@@H](CCCNC(=N)N)C(=O)N[C@@H](CCCNC(=N)N)C(=O)N[C@@H](CCCNC(=N)N)C(=O)N[C@@H](CCCNC(=N)N)C(=O)N[C@@H](CCCNC(=N)N)C(N)=O)[C@@H](C)CC)[C@@H](C)CC)[C@@H](C)CC)[C@@H](C)CC,HIV-1 integrase and DNA substrate,"DNA binding, gel retardation",,"2 h, 37 °C, together with: radiolabelled oligonucleotide DNA",,minimum DNA retardation concentration,4 µM
O=S(=O)(c1cccc2c1OCCC2)N1CC(c2nc(-c3ccc(F)cc3)no2)C1,"Calcium-activated potassium channel subunit alpha-1, with beta-3 subunit (KCNMA1, Homo sapiens, UniProt Q12791)",,HEK293,30 µM,,activity,inactive
copper-phenanthroline,"Gabrg2/GABRB2/Gabra1 (Rattus norvegicus, UniProt P18508+P47870+P62813, C260A/C282A/C312A/C319A/C341A/N289C/T249C)",two-electrode voltage clamp,Xenopus oocytes,"100 µM with phenanthroline 200 µM, 2 min, after DTT, together with: GABA 1 mM","baseline: initial response, vs Cys-less receptor",GABA current change,decreased
C[C@@H]1CN(c2cccnc2)C(=O)c2cc(COc3ccc(Cl)cn3)nn21,"Grm5 (Rattus norvegicus, UniProt P31424)","calcium mobilisation, allosteric modulator",rat mGlu5-expressing cells,concentration not given,,activity class,inactive
CC[C@H](C)[C@H](NC(=O)[C@H](C)NC(=O)[C@H](CO)NC(=O)[C@@H](NC(=O)[C@H](CCC(=O)O)NC(=O)[C@H](CCC(=O)O)NC(=O)[C@H](CCC(N)=O)NC(=O)[C@H](CCCCN)NC(=O)[C@H](CCCNC(=N)N)NC(=O)[C@@H](N)CCCCN)C(C)C)C(=O)N[C@H](C(=O)N[C@H](C(=O)N[C@@H](CCC(N)=O)C(=O)N[C@@H](CCCNC(=N)N)C(=O)N[C@@H](C)C(=O)N[C@@H](Cc1ccc(O)cc1)C(=O)N[C@@H](CCCNC(=N)N)C(=O)N[C@@H](CCCNC(=N)N)C(=O)N[C@@H](Cc1ccc(O)cc1)C(=O)N[C@@H](CC(C)C)C(=O)N[C@@H](CC(C)C)C(=O)N[C@@H](CCCCN)C(=O)N[C@@H](CCC(N)=O)C(=O)N[C@@H](CCCCN)C(=O)N[C@H](C(=O)N[C@@H](CCCCN)C(=O)N[C@@H](CCCCN)C(=O)O)C(C)C)[C@@H](C)CC)C(C)C,"Calmodulin (CAM, Paramecium tetraurelia, UniProt P07463)",,,"3 to 1 µM, pH 7.4, 22 °C, Ca2+-bound CaM residues 1-148",baseline: peptide alone,fluorescence emission increase,25%
Clc1cc(Cl)c(-c2c(Cl)c(Cl)cc(Cl)c2Cl)cc1Cl,Ryanodine receptor 1,[3H]ryanodine binding,"rainbow trout, skeletal muscle microsomes",up to 20 µM,baseline: DMSO,Emax,135 ± 3.27%
COc1cccc(Oc2ccc(C(=O)N[C@H](CN3CCN(c4cccc(O)c4)[C@@H](C)C3)C(C)C)cc2)c1,"OPRD1 (Homo sapiens, UniProt P41143)",antagonist,CHO,together with: DPDPE,,Ke,1500 ± 400 nM
CCOC(=O)CNC(=O)[C@@H]1CCC/C1=C/[C@@H]1CCCN1C(=O)CNS(=O)(=O)c1cccc2c(N(C)C)cccc12,"Prolyl 4-hydroxylase subunit alpha-1, with P4HB subunit (P4HA1, Homo sapiens, UniProt P13674)",noncompetitive inhibitor,,"pH 7.8, 30 °C, together with: α-ketoglutarate (varied)",,Kii,18 ± 8 µM
O=c1[nH]cnc2c1ncn2[C@@H]1O[C@@H]2COP(=O)(O)O[C@H]3[C@@H](O)[C@H](n4cnc5c(=O)[nH]cnc54)O[C@@H]3COP(=O)(O)O[C@H]2[C@H]1O,gdpP residues 84-659,"substrate, HPLC",,"100 µM, 37 °C, upper limit if undegraded 24 h, together with: enzyme 1 µM",,degradation rate,≤ 0.001 mol/min/mol enzyme

# Repeated from above:
Molecule,target,test,test system,conditions,scale,endpoint,value
COc1ccccc1Nc1ccc2c(c1)C(c1ccccc1F)=NC(C)C(=O)N2 (stereo not shown),"ADRA2C (Homo sapiens, UniProt P18825)","ligand displacement, radioligand",,10 µM,,inhibition,62%
CC[C@H](C)[C@H](NC(=O)[C@H](C)NC(=O)[C@H](CO)NC(=O)[C@@H](NC(=O)[C@H](CCC(=O)O)NC(=O)[C@H](CCC(=O)O)NC(=O)[C@H](CCC(N)=O)NC(=O)[C@H](CCCCN)NC(=O)[C@H](CCCNC(=N)N)NC(=O)[C@@H](N)CCCCN)C(C)C)C(=O)N[C@H](C(=O)N[C@H](C(=O)N[C@@H](CCC(N)=O)C(=O)N[C@@H](CCCNC(=N)N)C(=O)N[C@@H](C)C(=O)N[C@@H](Cc1ccc(O)cc1)C(=O)N[C@@H](CCCNC(=N)N)C(=O)N[C@@H](CCCNC(=N)N)C(=O)N[C@@H](Cc1ccc(O)cc1)C(=O)N[C@@H](CC(C)C)C(=O)N[C@@H](CC(C)C)C(=O)N[C@@H](CCCCN)C(=O)N[C@@H](CCC(N)=O)C(=O)N[C@@H](CCCCN)C(=O)N[C@H](C(=O)N[C@@H](CCCCN)C(=O)N[C@@H](CCCCN)C(=O)O)C(C)C)[C@@H](C)CC)C(C)C,"Calmodulin (CAM, Paramecium tetraurelia, UniProt P07463)",,,"3 to 1 µM, pH 7.4, 22 °C, Ca2+-bound CaM residues 1-148",baseline: peptide alone,fluorescence emission increase,25%
N=C(N)NCCC[C@@H]1NC(=O)CNC(=O)[C@H](CC(N)=O)NC(=O)[C@@H](N)CSSC[C@@H](C(=O)O)NC1=O,"Aminopeptidase N (Rattus norvegicus, UniProt P15684)","enzyme activity, inhibitor, absorbance",,"50 µM, pH 7.8, with preincubation",,remaining activity,~82%
O=S(=O)(c1cccc2c1OCCC2)N1CC(c2nc(-c3ccc(F)cc3)no2)C1,"Calcium-activated potassium channel subunit alpha-1, with beta-3 subunit (KCNMA1, Homo sapiens, UniProt Q12791)",,HEK293,30 µM,,activity,inactive
Clc1cc(Cl)c(-c2c(Cl)ccc(Cl)c2Cl)cc1Cl,Ryanodine receptor 1,[3H]ryanodine binding,"rainbow trout, skeletal muscle microsomes",,,EC20,450 nM
c1ccc([C@H]2CO2)cc1,Karenia brevis epoxide hydrolase,substrate,,pH 7.0,,Km,6.43 mM
